Experimental data from different studies.
A part holds a random share of what one study measured. Changes are numbered by the printed parent chain.

Study 1
Target: Sal-like protein 4, full length isoform B (SALL4, Homo sapiens, UniProt Q9UJQ4-2, residues 1-616)
Method: universal PBM
Form: double-stranded DNA, one strand shown
Matrix: in vitro
Concentration: not given
Notes: 8-mer, flanks averaged, mean of replicates
Direction: higher = stronger binding
`AGAGTTGA` gave an E-score of 0.00768.
For `GCGAGATA`, the E-score was 0.0876.
The E-score of `ATCTTGCC` is reported as -0.0614.
`GCACGGTA` gave an E-score of -0.115.
With `CGGCTTAA` the E-score was -0.0902.
With `ACCTGCTA` the E-score was 0.0202.
`AAGCGTCG` has an E-score of -0.178.
`GGAGTCTA` has an E-score of -0.105.
`ACACAACG` gave an E-score of 0.166.
`GTGATTTA` has an E-score of 0.209.
`AGTTAGAG` gave an E-score of -0.152.
The E-score of `GGGAAGCA` is reported as -0.0551.
With `CTCCGTCC` the E-score was -0.295.
For `CACGCCCC`, the E-score was -0.339.
`AAAAGTGG` has an E-score of 0.15.
`AAAGAGAA` gave an E-score of 0.131.
With `GATGCCAA` the E-score was 0.0446.
The E-score of `CGCCACGC` is reported as -0.351.
`GGGCCCGA` has an E-score of -0.196.
`AGGGATGG` gave an E-score of -0.145.
With `ATGTAGCA` the E-score was 0.11.
`AGTAAAGC` has an E-score of 0.166.
The E-score of `ATGCTTGC` is reported as -0.0289.
With `GCCATTAC` the E-score was -0.116.
For `CCTGGGAC`, the E-score was -0.395.

Study 2
Target: Histone acetyltransferase KAT6A, both winged helices, GST fusion (KAT6A, Homo sapiens, UniProt Q92794, residues 1-181)
Method: protein binding microarray
Form: double-stranded DNA, one strand shown
Matrix: in vitro
Concentration: not given
Notes: 8-mer, flanks averaged, mean of 2 arrays, mostly near background
Relative to: not given
Direction: higher = stronger binding
Target sequence (chain): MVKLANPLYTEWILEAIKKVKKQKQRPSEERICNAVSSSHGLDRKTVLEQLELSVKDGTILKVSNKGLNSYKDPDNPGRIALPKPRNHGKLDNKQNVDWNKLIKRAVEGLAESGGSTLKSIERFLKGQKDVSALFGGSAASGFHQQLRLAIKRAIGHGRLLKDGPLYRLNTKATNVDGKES
With `CGCTCAAA` the E-score was 0.162.
For `CCTCGCTC`, the E-score was 0.081.
The E-score of `CGATCTCA` is reported as -0.0433.
With `AGCGCAAT` the E-score was 0.232.
The E-score of `GTGAATTA` is reported as -0.00752.
The E-score of `CCACACTA` is reported as -0.152.
For `GCATGGAC`, the E-score was 0.00755.
The E-score of `ATGAACAA` is reported as -0.0455.
With `AATCTTAA` the E-score was -0.13.
The E-score of `ACCACTGA` is reported as -0.092.
The E-score of `CGGACGTA` is reported as 0.193.
For `CACATCAG`, the E-score was -0.199.
`CATTAGGC` gave an E-score of -0.105.
`ACTACACG` gave an E-score of -0.012.
With `CGCTCTGC` the E-score was 0.123.
For `ATACGATG`, the E-score was -0.00358.
For `AAACCGTT`, the E-score was 0.0684.
The E-score of `GTGACAAA` is reported as -0.0713.
For `ATTATATA`, the E-score was -0.00915.
For `TAATGTCA`, the E-score was -0.169.
With `CAATCGTA` the E-score was 0.036.
The E-score of `AAATTATA` is reported as 0.019.
With `ACTATCAC` the E-score was -0.145.
For `AGGGTTGG`, the E-score was -0.21.
For `CATCAGGG`, the E-score was -0.127.

Study 3
Target: CCND3, cyclin fold, Cln2 fusion (human)
Method: yeast growth competition, sequencing
Matrix: yeast
Notes: weak parent motif
Relative to: not given
Direction: higher = stronger binding
Parent: RB1 docking peptide (human); PKPLKKLRFDIEG; partner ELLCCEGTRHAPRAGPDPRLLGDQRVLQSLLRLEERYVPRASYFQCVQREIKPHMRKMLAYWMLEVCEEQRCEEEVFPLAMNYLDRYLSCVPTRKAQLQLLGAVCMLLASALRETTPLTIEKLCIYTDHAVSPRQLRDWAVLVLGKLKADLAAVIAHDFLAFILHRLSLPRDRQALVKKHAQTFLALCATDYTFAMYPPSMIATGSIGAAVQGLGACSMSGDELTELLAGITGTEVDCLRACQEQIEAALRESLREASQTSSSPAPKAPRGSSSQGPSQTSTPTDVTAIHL
`F9V`: “normalised enrichment score” 0.143.
Under “normalised enrichment score”, `G13A` is recorded as 0.206.
`F9W` — result for “normalised enrichment score”: 0.129.
`L7G` — result for “normalised enrichment score”: 0.151.
Under “normalised enrichment score”, `L7H` is recorded as 0.0905.
Under “normalised enrichment score”, `L7W` is recorded as 0.225.
`D10Q` — result for “normalised enrichment score”: 0.0314.
For `G13T`, “normalised enrichment score” read 0.0392.
Under “normalised enrichment score”, `K6P` is recorded as 0.0996.
`K6S`: “normalised enrichment score” 0.0913.
For `P3L`, “normalised enrichment score” read 0.158.
Under “normalised enrichment score”, `P1G` is recorded as 0.149.
`P3Q` — result for “normalised enrichment score”: 0.0812.
For `P1L`, “normalised enrichment score” read 0.0374.
For `K6R`, “normalised enrichment score” read 0.111.
`L7R` — result for “normalised enrichment score”: 0.142.
For `G13I`, “normalised enrichment score” read 0.108.
Under “normalised enrichment score”, `P3F` is recorded as 0.0907.
`K5R F9L`: “normalised enrichment score” -0.23.
For `P1T`, “normalised enrichment score” read 0.079.
For `F9Y`, “normalised enrichment score” read 0.0725.
`G13S`: “normalised enrichment score” 0.11.

Study 4
Target: RNA binding protein fox-1 homolog 2, RRM domain, GST-SBP tag (RBFOX2, Homo sapiens, UniProt O43251-10, residues 100-194)
Method: RNA Bind-n-Seq
Form: RNA
Matrix: in vitro
Concentration: 365 nM
Notes: natural RNA segment, single round, ends assumed
Relative to: no-protein control
Direction: higher = stronger binding
Constant ends, left off below: GGGAGUUCUACAGUCCGACGAUC … UGGAAUUCUCGGGUGCCAA
Residues (chain): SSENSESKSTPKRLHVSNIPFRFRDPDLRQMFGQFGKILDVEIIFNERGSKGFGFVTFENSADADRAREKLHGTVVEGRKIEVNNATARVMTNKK
`UGGUGACUAUCCUGCCUUAAUCACUUUGCUUUAGGGCAACUCAUGGUGAUCUCUUCCAAGAUCUGUUUUUAAAUUGUUUGGACUACUUGAGCCACAACUCUCAGAGGACA` — result for “RBNS enrichment (R)”: 0.31.
Under “RBNS enrichment (R)”, `AUGAAUAGUAAGACCUAAUAAUUCCUGGCUUAAAGAAACUGAAGGAAUUACUCUUUUAGAGAAAAACACUGGAAAUUUUGCUAACACAAUACUUAAAAGUAUAUAGUUGG` is recorded as 0.309.
Under “RBNS enrichment (R)”, `CCUCUCAAAUAGCUGGGCUUACAGGCAUGAGCCACCACACCUGGCCAGGAUUUGGUUGUUUAAAUAUAAAUCUGAUCACCCCCCUGCUUAGAACCCUUCUGCUUUCUAUU` is recorded as 0.403.
`UGGGUUGCUGUCAUUUCUGUUUUUCUCUUGCAGUGACAGAUCAGAUCAAGGCGGUAAAUCAAGUGGAAAAAGCGUCGGGUUCAAGGGGAGAACUCUGAUUGUGGGUAAUC` — result for “RBNS enrichment (R)”: 0.873.
`AGAGGGGCAGGCCCUGCACUGUCCUGCUCCACAGUGUUGGCGAGAGGAGGGGCCCGUUGUCUCCCUGGCCCUCAAGGCCUCCCACAGUGACUCGGGCUCCUGUGCCCUUA` — result for “RBNS enrichment (R)”: 0.504.
Under “RBNS enrichment (R)”, `CCUAGGGAAUGGAGAAUUCAUGUGAAGCCGAAUGAAGGAUCUUAUCUUAUACUGUCCCCCUUUCUAAUGGCCACUCUUUAGUGUUUGUGUCUAAUGUUAAUGCUUAAAGC` is recorded as 0.96.
`UUUUUUGUGUUAGGUGCUUUGGCUGAACUUGAUUCCAGCCCCCUUUUCCCUUUGGUGUUGUGUAUGUCUCUUCAUUUCCUCUCAAAUCUUCAACUCUUGCCCCAUGUCUC`: “RBNS enrichment (R)” 1.2.
For `UAACAGUUCCUAAAUUCUAAGGUCCUUGAAUUUGAAGGAAAGACCUUUAGGCCAACUCUGUCUUGGCUGAUAACUCUUACAAUGCACGUUACUAACUUGGUGUCGCUACC`, “RBNS enrichment (R)” read 28.1.

Study 5
Target: Prothrombin, mature alpha-thrombin (F2, Homo sapiens, UniProt P00734)
Method: aptamer microarray, sandwich
Form: DNA with 2'F-ANA
Matrix: in vitro
Concentration: 200 nM
Notes: whole 15-mer aptamer, many near background
Added: Cy3 exosite-II aptamer, 400 nM
Direction: higher = stronger binding
Strand: GGTTGGTGTGGTTGG
`2'F-ANA at 5 6 7 8 9 10 11 12 13 14`: “mean fluorescence intensity” 55.9 a.u.
For `2'F-ANA at 3 4 9 10 11 14 15`, “mean fluorescence intensity” read 197 a.u.
For `2'F-ANA at 2 3 4 5 6 7 9 10 11 13`, “mean fluorescence intensity” read 75 a.u.
`2'F-ANA at 1 2 3 7 8 10 13 15`: “mean fluorescence intensity” 65 a.u.
`2'F-ANA at 3 4 5 8 9 10 14` — result for “mean fluorescence intensity”: 48.2 a.u.
`2'F-ANA at 4 7 9 10 11 14 15`: “mean fluorescence intensity” 62.2 a.u.
`2'F-ANA at 2 3 6 7 11 12 13` — result for “mean fluorescence intensity”: 827 a.u.
`2'F-ANA at 1 4 8 9 15`: “mean fluorescence intensity” 161 a.u.
For `2'F-ANA at 1 2 4 8 11 12 14 15`, “mean fluorescence intensity” read 65 a.u.
For `2'F-ANA at 1 4 6 8 12 13 14 15`, “mean fluorescence intensity” read 58 a.u.
`2'F-ANA at 2 7 10 11 13 15` — result for “mean fluorescence intensity”: 149 a.u.
`2'F-ANA at 4 5 7 11 14 15`: “mean fluorescence intensity” 62.1 a.u.
Under “mean fluorescence intensity”, `2'F-ANA at 2 3 5 6 7 8 9` is recorded as 166 a.u.
`2'F-ANA at 4 5 6 7 8 9 11 14 15`: “mean fluorescence intensity” 64.6 a.u.
Under “mean fluorescence intensity”, `2'F-ANA at 1 3 7 10 12 14 15` is recorded as 77.3 a.u.
Under “mean fluorescence intensity”, `2'F-ANA at 6 9 10 11 12` is recorded as 170 a.u.
`2'F-ANA at 1 4 6 9 10 11 14`: “mean fluorescence intensity” 51.1 a.u.
`2'F-ANA at 1 3 5 6 7 8 12 14 15` — result for “mean fluorescence intensity”: 51.4 a.u.
`2'F-ANA at 1 3 5 6 7 8 9 12 13 14`: “mean fluorescence intensity” 97.6 a.u.
`2'F-ANA at 1 6 9 13`: “mean fluorescence intensity” 107 a.u.

For quick reference, copied from above (study 3):
Under “normalised enrichment score”, `L7W` is recorded as 0.225.
For `G13I`, “normalised enrichment score” read 0.108.
For `F9Y`, “normalised enrichment score” read 0.0725.
`D10Q` — result for “normalised enrichment score”: 0.0314.
`G13S`: “normalised enrichment score” 0.11.
Under “normalised enrichment score”, `L7H` is recorded as 0.0905.
Under “normalised enrichment score”, `P1G` is recorded as 0.149.
